# Experimental data collected from several papers.
# ± gives the spread as reported.
SMILES,target or system,test,test system,setting,how to read,measurement,result
Cc1cc(C(=O)/C(=C\c2cccc(F)c2)c2cccc(F)c2)c(C(=O)N2CCCCC2)c(=O)[nH]1,human Fibroblast,"cell growth or viability, MTT",,72 h,,IC50,> 10 µM
COc1cc([C@@H]2c3cc4c(cc3[C@@H](O[C@@H]3O[C@@H]5CO[C@@H](C)O[C@H]5[C@H](O)[C@H]3O)[C@H]3COC(=O)[C@H]23)OCO4)cc(OC)c1O,PANC-1,"cell proliferation, MTT",,48 h,,IC50,24.35 ± 0.001 µM
Brc1ccc(-c2cc3ccccc3[nH]2)cc1,HEK293 NF-κB luciferase reporter,"reporter gene, measured: NF-κB",,"6 h, together with: TNFα",,IC50,12.5 ± 2 µM
Cc1ccc(=O)n(-c2ccccc2)c1,HuT78,cell growth or viability,,,,IC50,> 125 µM
Cn1cc(Nc2nccc(-c3ccc4c(c3)CN(C3COC3)CC[C@H]4NC(=O)c3cn(C(C)(C)C)nn3)n2)cn1,human primary monocytes,TNFα production,,together with: plate-bound human IgG,,IC50,0.0056 ± 0.0015 µM
CC1CCN(Cc2cc(/C=C/C(=O)c3ccc(Cl)cc3)ccc2O)CC1,WRL68,"cell growth or viability, MTT",,72 h,,IC50,80.7 µM
CCCCCCCCCCCCCC(=O)NCCC[N+](C)(C)CCCS(=O)(=O)[O-],SK-OV-3 eGFP-transfected,"cell viability, MTT",,24 h,,IC50,220 µM
C=CC(C)(C)c1cc2c(cc1O)OC[C@H](c1cc(-c3oc4cc(O)ccc4c3C(=O)c3cc(C(C)(C)C=C)c(O)cc3O)c(O)cc1O)C2,Hepa1c1c7,cell growth,,,,IC50,15.6 µM
CC1=CC(=O)C(C(C)C)=CC1=O,WRL68,"cell growth or viability, MTT",,24 h,,IC50,10.5 µg/mL
CC(C)[C@H](NC(=O)[C@@H]1CCCN1C(=O)[C@H](CCCNC(=N)N)NC(=O)[C@H](CS)NC(=O)[C@H](Cc1c[nH]c2ccccc12)NC(=O)[C@H](CCCNC(=N)N)NC(=O)[C@@H](Cc1ccccc1)NC(=O)[C@H](Cc1c[nH]cn1)NC(=O)[C@H](CCC(=O)O)NC(=O)[C@H](CS)NC(=O)[C@H](CS)NC(=O)[C@H](CCCCN)NC(=O)[C@@H]1CC(=O)N[C@@H](CCCNC(=N)N)C(=O)N[C@@H](C)C(=O)N[C@@H](CC(=O)O)C(=O)N[C@H](Cc2ccc(O)cc2)C(=O)N1)C(N)=O [technetium-99m labelled],,,"C57 mice, blood","intravenous, 0.037 MBq, 24 h",,tissue uptake,0.05 ± 0.02 %ID/g
O=C(NNC(=O)c1c(O)ccc2ccccc12)c1cccnc1,PANC-1,cell growth or viability,,72 h,,IC50,> 10 µM
O=C1c2ccccc2-c2nc3nnnn3nc21,HeLa expressing ODD-Luc,"ODD-Luc degradation, inhibitor, cycloheximide chase luciferase",,,,IC50,3.4 ± 0.9 µM
C#C[C@]1(COP(=O)(O)OP(=O)(O)OP(=O)(O)O)O[C@@H](n2cnc3c(N)nc(F)nc32)C[C@@H]1O,human PBMC tumour model,,"host not given, plasma","oral, 30 mg, single dose, fed",,half-life,6.03 days
COC(=O)c1c(-c2ccc([N+](=O)[O-])cc2)c2n(c1C(=O)OC)CCn1cccc1-2,PANC-1,"cell growth or viability, MTT",,48 h,,IC50,68.3 µM
CCN(CC)Cc1cc2c(-c3ccccc3)cc(=O)oc2c(C)c1O,NIH3T3,hyaluronan secretion,,72 h,,IC50,100 ± 65.9 µM
C[C@H]1[C@H](C)CC[C@]2(C(=O)O)CC[C@]3(C)C(=CC[C@@H]4[C@@]5(C)C[C@@H](O)[C@H](O)[C@@](C)(CO)[C@@H]5[C@H](O)C[C@]43C)[C@H]12,LAPC4,"AR transcriptional activity, antagonist, PSA promoter luciferase",,24 h,,IC50,1.99 µM
CC(=O)c1cc2c(-c3ccccc3)cc(=O)oc2c(C)c1O,NIH3T3,hyaluronan secretion,,72 h,,IC50,42.5 ± 21.3 µM
COc1ccc(C[C@H](N)C(=O)N[C@H]2[C@@H](O)[C@H](n3cnc4c(N(C)C)ncnc43)O[C@@H]2CO)cc1,NIH3T3,resazurin,,125 cells per well,,IC50,3.49 ± 0.64 µM
Cc1ccc(NC(=O)c2ccc(CN3CCN(C)CC3)cc2)cc1Nc1nccc(-c2cncc(-c3oncc3C)c2)n1,,,mild-to-moderate Parkinson's disease patients,"oral, 100 mg once daily, day 7, on anti-Parkinson medication",direction not given,PDQ-39 score,14.8 ± 14.1
COc1cc(OC)c(OC)cc1/C=C(\C(=O)c1cc(C)[nH]c(=O)c1C(=O)N1CCCCC1)c1cc(OC)c(OC)cc1OC,human primary dermal fibroblasts,"cell proliferation, MTT",,72 h,,IC50,> 10 µM
CC(C)C[C@H](NC(=O)[C@H](Cc1ccccc1)NC(=O)c1cnccn1)B(O)O,RPMI-8226,"cell viability, ATP luminescence",,"48 h, together with: EGCG 0 nM",,IC50,0.0061 µM
CC(C)(C)c1cc(C(C)(C)C)c(NC(=O)c2c[nH]c3ccccc3c2=O)cc1O,Calu-3,MTT,,"20 µg/mL, 24 h",relative to: untreated control,viability,17.4 ± 0.6%
CC(C)[C@H](NC(=O)[C@@H]1CCCN1C(=O)[C@H](CCCNC(=N)N)NC(=O)[C@H](CS)NC(=O)[C@H](Cc1c[nH]c2ccccc12)NC(=O)[C@H](CCCNC(=N)N)NC(=O)[C@@H](Cc1ccccc1)NC(=O)[C@H](Cc1c[nH]cn1)NC(=O)[C@H](CCC(=O)O)NC(=O)[C@H](CS)NC(=O)[C@H](CS)NC(=O)[C@H](CCCNC(=N)N)NC(=O)[C@@H]1CC(=O)N[C@@H](CCCNC(=N)N)C(=O)N[C@@H](C)C(=O)N[C@@H](CC(=O)O)C(=O)N[C@H](Cc2ccc(O)cc2)C(=O)N1)C(N)=O [technetium-99m labelled],,,"C57 mouse, urinary bladder","intravenous, 0.037 MBq, 0.5 h",,tissue uptake,46.3 ± 2.59 %ID
COc1ccc2c(NC(=O)CCl)c(C(=O)c3cc(OC)c(OC)c(OC)c3)oc2c1,L1210,cell growth or viability,,24 h,,IC50,0.056 µM
C[C@@H]1COCCN1c1nc(-c2cnc(N)c(C(F)(F)F)c2)nc2c1C[C@@H]1COCCN21,A2058,"In-Cell Western, measured: phospho-S6 Ser235/236",,1 h,,IC50,< 0.55 µM
COc1cc(C(=O)c2sc3c(C)cccc3c2NC(=O)CI)cc(OC)c1OC,L1210,cell growth or viability,,24 h,,IC50,0.28 µM
NC1(c2ccc(-c3nc4ccn5c(=O)[nH]nc5c4cc3-c3ccccc3)cc2)CCC1,MDA-MB-231 LINK-A PIP3-BM -/-,"AKT phosphorylation, AlphaScreen SureFire, measured: AKT pSer473 over total AKT",,together with: EGF 200 nM,,IC50,0.0657 µM
COc1ccc2oc(C(=O)c3cc(OC)c(OC)c(OC)c3)c(NC(C)=O)c2c1,L1210,cell growth or viability,,24 h,,IC50,64.7 µM
COc1ccccc1-c1nccc(COc2ccccc2C[C@@H](Oc2cccc3sc(-c4ccc(F)cc4)c(-c4ccc(OCCN5CCN(C)CC5)c(Cl)c4C)c23)C(=O)O)n1,NCI-H929,"cell viability, MTT",,"48 h, 10% CFS",,IC50,0.025 µM
COc1ccc(C[C@H]2COC(=O)[C@@H]2Cc2ccc(OCc3cn(CC(=O)Nc4ccccc4N)nn3)c(OC)c2)cc1OC,CCRF-CEM,"cell growth or viability, CCK-8",,48 h,,IC50,> 5 µM
COc1cc(C(=O)c2sc3ccccc3c2NC(=O)CO[N+](=O)[O-])cc(OC)c1OC,L1210,cell growth or viability,,24 h,,IC50,0.31 µM
O=C1c2c(O)ccc(O)c2C(=O)c2c(NCCNCCO)ccc(NCCNCCO)c21,HCT-15/ADM2-2,"cell growth, XTT",,72 h,,IC50,0.272 µg/mL
COC(=O)c1c(-c2cccc(O)c2)c2n(c1C(=O)OC)CCn1cccc1-2,PANC-1,"cell growth or viability, MTT",,48 h,,IC50,72.6 µM
CCCC[C@H](NC(C)=O)C(=O)N[C@H]1CCC(=O)NC[C@@H](C(=O)N[C@@H](Cc2c[nH]c3ccccc23)C(N)=O)NC(=O)[C@H](CCCNC(=N)N)NC(=O)[C@@H](Cc2ccccc2)NC(=O)[C@H](Cc2c[nH]cn2)NC1=O,,,"beagle dog, male, plasma","subcutaneous, 8.0 mg/kg daily, day 1",,AUC(0-last),1280 ng·h/mL
Cc1cccc(-c2c3n(c4c(=O)[nH]nc(O)c24)CCn2cccc2-3)c1,PANC-1,"cell growth or viability, MTT",,48 h,,IC50,65 µM
O=C1C(=Cc2ccccc2)CN(C(=O)C#CC(=O)N2CC(=Cc3ccccc3)C(=O)C(=Cc3ccccc3)C2)CC1=Cc1ccccc1,MOLT-4/C8 and CEM T-lymphocytes,cytotoxicity,,,,IC50,2.43 µM
COc1ccc(-c2cncc(N[C@@H](C)c3cccc(NC(=O)c4cncc(C)c4)c3)n2)cc1OC,human Fibroblast,"cell growth or viability, inhibitor",,,,IC50,0.029 µM
COc1ccc2cc3[n+](cc2c1OCCc1cn(Cc2ccc(F)c(F)c2)nn1)CCc1cc2c(cc1-3)OCO2,HUVEC,"cell growth or viability, MTT",,,,IC50,50.7 µM
CCOC(=O)c1ccc2c(c1)n(CC)c[n+]2CC,RC-124 kidney epithelial,"cell proliferation, crystal violet staining",,96 h,,IC50,> 100 µM
O=C(Nc1nccs1)C(c1cc(F)ccc1O)N1Cc2ccccc2C1=O (centres unmarked),Ba/F3 EGFR L858R,"cell proliferation, MTS",,compound alone,,IC50,~10 µM
Cn1nc2c3c(cccc31)C(=O)c1ccccc1-2,HeLa expressing ODD-Luc,"ODD-Luc degradation, inhibitor, cycloheximide chase luciferase",,,,IC50,0.15 ± 0.01 µM
CC(C)Oc1ccc(C(=O)Cn2ccnc2)cc1-n1c(CN2CCN(C(=O)COc3ccc(Cl)cc3)CC2)nc2ccccc2c1=O,A3/KAW,"cell viability, CellTiter-Glo",,24 h,,IC50,> 10 µM
O=c1[nH]nc(O)c2c(-c3cccc(O)c3)c3n(c12)CCn1cccc1-3,PANC-1,"cell growth or viability, MTT",,48 h,,IC50,73.5 µM
COc1ccccc1-c1nccc(COc2ccccc2C[C@@H](Oc2ccnc3sc(-c4ccc(F)cc4)c(-c4ccc(OCCN5CCN(C)CC5)c(Cl)c4C)c23)C(=O)O)n1,NCI-H929,"cell viability, MTT",,"48 h, 10% CFS",,IC50,0.0091 µM
Oc1cccc(-c2nc(N3CCOCC3)c3oc4ncccc4c3n2)c1,IGROV-1,"AKT Ser473 phosphorylation, inhibitor, electrochemiluminescent immunoassay",,8 h,,IC50,0.017 ± 0.004 µM
CC(O)c1cc(C(=O)N[C@@H](C)Cn2ccc(-c3ccc(C#N)c(Cl)c3)n2)[nH]n1 (some centres unmarked),LAPC4,"cell growth or viability, ATP luminescence",,,,IC50,0.5 µM
O=c1cc(-c2ccc(O)cc2)oc2cc(O)cc(O)c12,MOLT-3,"cell growth or viability, ATP luminescence",,24 h,,IC50,140 µM
c1ccc([C@@H]2CCC[C@@H]2NC2=NCCCCCCCCCCC2)cc1,LAPC4,"AR transcriptional activity, antagonist, PSA promoter luciferase",,24 h,,IC50,4.41 µM
COc1cc(C(=O)c2sc3ccccc3c2N)cc(OC)c1OC,L1210,cell growth or viability,,,,IC50,0.66 µM
Cn1nnc2c(C(N)=O)ncn2c1=O,PANC-1,"cell proliferation, MTS",,"24 h, together with: 10 µM HNL",,IC50,126 µM
